Assay results pooled from the literature.
Each line is one published result; not all experiments were run side by side. Numbers after ± are the reported error.
Target: Tyrosine-protein kinase Blk (BLK, Homo sapiens, UniProt P51451)
Chain of UniProt P51451 (whole entry, looked up): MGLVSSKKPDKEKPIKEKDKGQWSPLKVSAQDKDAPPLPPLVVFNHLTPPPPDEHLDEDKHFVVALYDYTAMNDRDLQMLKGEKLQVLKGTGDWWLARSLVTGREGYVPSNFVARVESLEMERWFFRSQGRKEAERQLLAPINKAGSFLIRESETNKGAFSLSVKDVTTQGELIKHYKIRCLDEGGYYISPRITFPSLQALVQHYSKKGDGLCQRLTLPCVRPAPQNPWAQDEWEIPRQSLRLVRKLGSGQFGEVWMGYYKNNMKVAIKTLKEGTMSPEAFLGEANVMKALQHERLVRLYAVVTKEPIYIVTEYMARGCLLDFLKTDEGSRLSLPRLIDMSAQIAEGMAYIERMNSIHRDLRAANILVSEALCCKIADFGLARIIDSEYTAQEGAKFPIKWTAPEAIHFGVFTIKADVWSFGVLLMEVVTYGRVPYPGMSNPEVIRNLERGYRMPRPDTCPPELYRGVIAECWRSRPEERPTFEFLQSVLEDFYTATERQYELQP

SMILES = [2H]c1cc(C)c(NC(=O)c2cnc(Nc3cc(N4CCC(O)CC4)nc(C)n3)s2)c(Cl)c1; conditions = 0.001 µM; quantity = inhibition; value = > 50%
SMILES = C=CC(=O)N1CCC[C@@H](n2nc(-c3ccc(Oc4ccccc4)cc3)c3c(N)ncnc32)C1; assay = kinase activity, inhibitor, HotSpot radiometric; conditions = 100 nM, together with: ATP 10 µM; quantity = remaining activity; value = 0.6 ± 0.2%
SMILES = O=C(NC1CCC1)c1ccc2nc(-c3cccc(NS(=O)(=O)NCCN4CCCCC4)c3)cn2c1; assay = enzyme activity; conditions = 10 µM; quantity = remaining activity; value = 84%
SMILES = COc1ccc(F)cc1C(=O)NCc1ccc(-c2nn([C@@H](C)C(F)(F)F)c(N)c2C(N)=O)cc1; assay = kinase activity, inhibitor, HotSpot radiometric; conditions = 100 nM, together with: ATP 10 µM; quantity = remaining activity; value = 81.7 ± 0.7%
SMILES = [2H]c1cc(C)c(NC(=O)c2cnc(Nc3cc(N4CCCCC4)nc(C)n3)s2)c(Cl)c1; conditions = 0.0001 µM; quantity = inhibition; value = > 50%
SMILES = C#Cc1cc(-c2cc(Nc3nc(N[C@@H](C)c4ccc(F)cn4)ncc3Cl)n[nH]2)ccc1C=O; assay = enzyme activity, inhibitor; conditions = 0.2 µM; quantity = inhibition; value = 87.7%
SMILES = COc1cc(-c2cncc3c2CN(C)Cc2cc(N4CCNCC4)ccc2-3)cc(OC)c1OC; assay = kinase activity; conditions = 1 µM, human enzyme, together with: ATP 10 µM; how to read = reference: DMSO control; quantity = remaining activity; value = 85%
SMILES = Cc1cc(Nc2cc(N3CCN(C)CC3)nc(Sc3ccc(NC(=O)C4CC4)cc3)n2)[nH]n1; assay = kinase activity, KinaseProfiler; conditions = 0.03 µM, species human; how to read = reference: control; quantity = remaining activity; value = 98%
SMILES = C=CC(=O)N1CCC([C@@H]2CCNc3c(C(N)=O)c(-c4ccc(Oc5ccccc5)cc4)nn32)CC1; assay = kinase activity, inhibitor, HotSpot radiometric; conditions = 100 nM, together with: ATP 10 µM; quantity = remaining activity; value = -0.4%
SMILES = C#Cc1cccc(Oc2ccc(-c3nn([C@@H]4CCCN(C(=O)C=C)C4)c4ncnc(N)c34)cc2)c1; assay = ABPP-SILAC; conditions = 1 µM, 1 h; how to read = reference: DMSO; quantity = SILAC ratio; value = 20

Repeated from above:
SMILES = COc1cc(-c2cncc3c2CN(C)Cc2cc(N4CCNCC4)ccc2-3)cc(OC)c1OC; assay = kinase activity; conditions = 1 µM, human enzyme, together with: ATP 10 µM; how to read = reference: DMSO control; quantity = remaining activity; value = 85%
SMILES = Cc1cc(Nc2cc(N3CCN(C)CC3)nc(Sc3ccc(NC(=O)C4CC4)cc3)n2)[nH]n1; assay = kinase activity, KinaseProfiler; conditions = 0.03 µM, species human; how to read = reference: control; quantity = remaining activity; value = 98%
